Experimental data pooled from the literature.
Several values in a cell are separate wells, animals, samples, runs or records. ± gives the spread as reported.

With `CC(C)C[C@H](NC(=O)[C@H](CC(C)C)NC(=O)[C@H](Cc1c[nH]c2ccccc12)NC(=O)[C@H](CCC(=O)O)NC(=O)[C@@H](NC(=O)[C@H](Cc1ccccc1)NC(=O)[C@H](CCC(=O)O)NC(=O)[C@H](CCCCNC(=O)COCCOCCNC(=O)COCCOCCNC(=O)CC[C@H](NC(=O)CCCCCCCCCCCCCCCCCCC(=O)O)C(=O)O)NC(=O)[C@H](C)NC(=O)[C@H](CCCCN)NC(=O)[C@H](CCCCN)NC(=O)[C@H](CCC(=O)O)NC(=O)[C@H](CC(=O)O)NC(=O)[C@H](CC(C)C)NC(=O)[C@H](Cc1ccc(O)cc1)NC(=O)[C@H](CCCCN)NC(=O)[C@H](CO)NC(=O)[C@H](Cc1ccc(O)cc1)NC(=O)[C@H](CC(=O)O)NC(=O)[C@H](CO)NC(=O)[C@@H](NC(=O)[C@H](Cc1ccccc1)NC(=O)[C@@H](NC(=O)CNC(=O)[C@H](CCC(N)=O)NC(=O)C(C)(C)NC(=O)[C@@H](N)Cc1c[nH]cn1)[C@@H](C)O)[C@@H](C)O)C(C)C)C(=O)N[C@@H](CCC(=O)O)C(=O)NCC(=O)NCC(=O)N1CCC[C@H]1C(=O)N[C@@H](CO)C(=O)N[C@@H](CO)C(=O)NCC(N)=O` the tmax,ss was 12 h (human, plasma; subcutaneous, 16 mg weekly, week 20).
For `N#C[C@@]1(c2ccc3c(N)ncnn23)O[C@H](CO)[C@@H](O)[C@H]1O`, the recovery was 109% (plasma protein binding; mouse plasma; 100 µM, time not given).
For `Cc1cccc(CNC(=O)c2cn(CCNC(=O)c3ccccc3S)c3cc4c(cc3c2=O)OC(F)(F)O4)n1`, the bioavailability was 88% (Sprague-Dawley rat, male, plasma; intramuscular, 3 mg/kg of parent drug).
For `O=C(/C=C/c1ccc(O)cc1)c1ccc(O)cc1O`, the viability was 118% (HBL-1; 0.1 µM, 120 h).
For `Cc1ccc([C@@H]2O[C@H](CO)[C@@H](O)[C@H](O)[C@H]2O)cc1Cc1ccc(-c2ccc(F)cc2)s1`, “urinary magnesium excretion change” read 33.9 mg (Japanese type 2 diabetes patients; 100 mg, day 18, 24 h urine collection; baseline: baseline).
`CC(C)n1c(Nc2cccnc2)nc2cnc(Nc3ccc(N4CCN(C)CC4)cc3)nc21`: “subjects with grade 3 TEAEs” 7.1% (healthy male humans; oral, dose not given, drug interaction study, all arms).
Under “treatment-emergent adverse events”, `O=C(Nc1nc2cccc(-c3ccc(CN4CCS(=O)(=O)CC4)cc3)n2n1)C1CC1` is recorded as 0% (refers to: renal and urinary disorders; rheumatoid arthritis patients; oral, 200 mg once daily, 4 weeks, any relatedness).
`CCc1cc(C(=O)NC)c2nccc(N3CCc4c(cc(Cn5ccnc5)cc4-c4cn(C)nc4C(F)(F)F)C3=O)c2c1` — result for “body weight change”: 3.6% (Sprague Dawley rats; oral, 100 mg/kg twice daily, day 3; baseline: day 1).
For `COc1ccc(CNc2nc(-c3ccc(C(=O)O)cc3)nc3sc4ccccc4c23)cc1Cl`, the body weight was 21.5 g and 18.4 g and 19.1 g and 20.6 g (NSG mice; dose not given, day 3).
Under “hydrolysis half-life, A isomer”, `N[C@@H](CC(=O)O)C(=O)OC(C(=O)O)c1ccccc1[N+](=O)[O-].O=C(O)C(F)(F)F` (mixture of isomers) is recorded as 13 ± 1 h (1H NMR, dark; 50 mM sodium phosphate; concentration not given, pH 5.8, room temperature, 12.5% DMSO-d6).
`C[C@H]1Oc2cc(cnc2N)-c2c(nn(C)c2C#N)CN(C)C(=O)c2ccc(F)cc21` gave a clearance of 156 mL/min (population PK; patients with mild hepatic impairment (NCI sample B), plasma; oral, 100 mg, mean, single dose).
`C[C@@H](c1ncncc1F)[C@](O)(Cn1cncn1)c1ccc(F)cc1F` gave a drug-related TEAE of 36.4% (human; oral, 400 mg, drug interaction trial).
`COc1ccc([C@@H](O)c2cc(-c3ncnc4cc(N5CCOCC5)ccc34)c(F)cc2Cl)nn1` — result for “drug-related proctitis incidence”: 17% (locally advanced rectal cancer patients; 100 mg, added: capecitabine and radiotherapy).
With `CCN1CCN(Cc2ccc(NC(=O)c3ccc(C)c(NC(=O)c4cncc(-c5cccs5)c4)c3)cc2C(F)(F)F)CC1` the AUC/dose was 0.12 kg·µg·h/mL/mg (C57BL/6 mouse, plasma; intraperitoneal, 10 mg/kg, 0.25 to 8.0 h, single dose).
With `CNCc1ccc(-c2[nH]c3cc(F)cc4c3c2CCNC4=O)cc1` the headache incidence was 25% (human patients; oral, 360 mg twice daily, all grades).
`CC[C@H](C)CCCCC(=O)N[C@@H](CCN)C(=O)N[C@H](C(=O)N[C@@H](CCN)C(=O)N[C@H]1CCNC(=O)[C@H]([C@@H](C)O)NC(=O)[C@H](CCN)NC(=O)[C@H](CCN)NC(=O)[C@H](CC(C)C)NC(=O)[C@@H](Cc2ccccc2)NC(=O)[C@H](CCN)NC1=O)[C@@H](C)O` gave a clearance reduction of 42% (long-term haemodialysis patients, plasma; IV, 0.75 mg/kg; baseline: healthy subjects).
`CC(C)C[C@H](NC(=O)[C@@H](Cc1c[nH]c2ccccc12)NC(=O)[C@H](Cc1ccc(O)cc1)NC(=O)[C@H](CO)NC(=O)[C@H](Cc1c[nH]c2ccccc12)NC(=O)[C@H](Cc1c[nH]cn1)NC(=O)[C@@H]1CCC(=O)N1)C(=O)N[C@@H](CCCNC(=N)N)C(=O)N1CCC[C@H]1C(=O)NCC(N)=O` — result for “patients, drug-related Constipation TEAEs”: 0% (Chinese CPP boys; intramuscular, 22.5 mg, 12 months, day 1, month 6).
For `FC(F)(F)c1ccc(CNc2ccc(Cc3c[nH]c4ncc(Cl)cc34)cn2)cn1`, “treatment-related adverse events” read 0% (refers to: Arthralgia; patients with advanced solid tumours, non-TGCT cohort; oral, 1000 mg/day, grade 3 or higher).
The CC50 of `COc1cccnc1-c1nc2ccccn2c1N(C)c1ccc(F)cc1` is reported as 7.94 µM (peritoneal macrophages, Swiss mice; 5 days, 5% fetal calf serum).
For `COc1ccnc(C(=O)N[C@@H](CO)C(=O)O)c1OCOC(=O)C(C)C`, the DT50 water was 1.98 days (Staffordshire loam sediment, aerobic dark; 20 °C).
For `COc1ccc2c(=O)n(C)c(-c3ccccc3)nc2c1`, the concentration was 15 ng/mL (Sprague-Dawley rat, male, large intestine; oral, 30 mg/kg, 0.25 h).
For `Cl.[2H]C([2H])([2H])CC(=O)c1cnc(NC(=O)C2CC2)cc1Nc1cccc(-c2ncn(C([2H])([2H])[2H])n2)c1OC`, “elimination rate constant” read 2.28e-05 s⁻¹ (geometric mean; human; oral, 40 mg twice daily, day 7, fed, liquid, multiple dose).
`N#Cc1ccc2c(c1)[C@H]1CCCN(C(=O)c3ccc4[nH]cnc4c3)[C@H]1C2` has a DHEA-S level of 5.1 µmol/L (human, male; 10 mg, day 7).
For `C=CC(=O)Nc1cc(Nc2nccc(-c3cn(C)c4ccccc34)n2)c(OC)cc1N(C)CCN(C)C`, the recovery was 73.1% (storage stability; human dried blood spot; 10 d, on ice, HQC level).
The DT50 of `COc1ccnc(C(=O)NCC(=O)O)c1O` is reported as 32.8 days (aerobic soil incubation; soil; worst-case terminal value, for exposure modelling).
The dissociation rate of `O=C([O-])CN1CCN(CC(=O)[O-])CCN([C@H](CO)[C@H](O)CO)CCN(CC(=O)[O-])CC1.[Gd+3]` (racemic) is reported as 0.008 %/day (LC-ICP-MS; human plasma; pH 7.4, 37 °C).
`COc1ccc(C[C@@H](C)[C@@H](C)Cc2ccc(OC)c(OC)c2)cc1OC` gave an AUC(0-t) of 34500 ± 11400 ng·h/mL (beagle dog, male, plasma; oral, 1000 mg/kg/day, day 1).
Under “subjects with adverse event”, `CC(C)(C(=O)N1CCOc2c(C#N)cncc2C1)C(F)F` is recorded as 50% (refers to: CSF leakage; human; oral, 40 mg, CSF pharmacokinetic cohort).
For `COc1cc(N2CCC(N3CCN(C)CC3)CC2)ccc1Nc1ncc(Cl)c(Nc2ccccc2S(=O)(=O)C(C)C)n1`, the MTD was 10 mg/kg (CD1 nude mouse; oral, 20 days).
Under “patients with subtherapeutic C0”, `C=CC[C@@H]1/C=C(\C)C[C@H](C)C[C@H](OC)[C@H]2O[C@@](O)(C(=O)C(=O)N3CCCC[C@H]3C(=O)O[C@H](/C(C)=C/[C@@H]3CC[C@@H](O)[C@H](OC)C3)[C@H](C)[C@@H](O)CC1=O)[C@H](C)C[C@@H]2OC` is recorded as 41% (kidney transplant recipients, CYP3A5*3/*3 poor metabolizers, whole blood; oral, dose not given).
`CCO[C@H]1CCN(Cc2c(OC)cc(C)c3[nH]ccc23)[C@H](c2ccc(C(=O)O)cc2)C1` gave an unbound half-life of 21.2 h (human severe hepatic impairment, plasma; oral, 200 mg single dose, median).
`Cc1nc(-c2ccc(OCC(C)C)c(C#N)c2)sc1C(=O)O` — result for “subjects with decreased appetite”: 2.6% (healthy Chinese subjects, fasted; oral, 40 mg single dose).
`C=CCN1CC(=O)N2[C@@H](Cc3ccc(O)cc3F)C(=O)N(Cc3cccc(N4CC(N5CCN(CC)CC5)C4)n3)C[C@@H]2N1C(=O)NCc1ccccc1`: “any treatment-related adverse event” 0% (advanced solid tumour patients; oral, 80 mg twice daily, grade ≥3, dose-escalation).
The Dizziness patients of `CNC(=O)c1ccc(-c2cnc3ncc(Cc4ccc5ncccc5c4)n3n2)cc1F` is reported as 1% (Japanese patients; oral, 400 mg twice daily, any grade).
The creatinine of `Oc1ccc(/C=C/c2cc(O)cc(O)c2)cc1` is reported as 0.29 mg/dL and 0.33 mg/dL and 0.32 mg/dL (rat, azoxymethane-injected, blood at sacrifice; 10 mg/kg).
`COc1cccc(OC)c1-c1cc(C(=O)NC2(C(=O)O)C3CC4CC(C3)CC2C4)nn1-c1ccc(C(=O)N(C)CCCN(C)CCCN(C)C(=O)CN2CCN(CC(=O)[O-])CCN(CC(=O)[O-])CCN(CC(=O)[O-])CC2)cc1C(C)C.[177Lu+3]` (stereo not shown): “tumour-to-small intestine ratio” 6.57 (mouse HT-29 xenograft; 4 h, biodistribution; baseline: tumour over small intestine).
`CC[C@H](C)[C@@H]([C@@H](CC(=O)N1CCC[C@H]1[C@H](OC)[C@@H](C)C(=O)N[C@@H](Cc1ccccc1)C(=O)O)OC)N(C)C(=O)[C@@H](NC(=O)[C@@H](NC)C(C)C)C(C)C` — result for “excreted in feces”: less than 2% (refers to: sum of compound and compound-HPA; Sprague Dawley rat, feces; intravenous, dose not given, 120 h, dosed as NaPi2b ADC, recovery-corrected; baseline: dose).
The AUC(0-t) ratio of `CCCC(CCC)NC(=O)c1ccc2c(c1)OCO2` is reported as 0.7 (rat Sprague-Dawley, plasma; intravenous, 1 mg/kg; baseline: female over male).
The renal clearance of `OC[C@H]1O[C@@H](c2ccc(F)c(Cc3cc4ccccc4s3)c2)[C@H](O)[C@@H](O)[C@@H]1O` is reported as 2.15 ± 0.47 mL/min (Japanese type 2 diabetes patients, plasma; oral, 50 mg/day, day 14).
The Cmax of `CCOc1c([C@H](C)n2nc(C)c3c(N)ncnc32)cc(Cl)c(F)c1[C@@H]1CNC(=O)C1` is reported as 1270 ± 655 nM (patients, monotherapy; oral, 20 mg once daily, cycle 1 day 1).
Under “patients with adverse event”, `Cc1cc(NC2CCN(C(=O)OC3CCN(C(=O)/C=C/CN(C)C)C3)CC2)n2ncc(C(C)C)c2n1` (stereo not shown) is recorded as 43% (Phase I dose escalation CTCAE v4.0, refers to: Diarrhea; patients with advanced solid tumours; dose not given, all dose schedules any grade).
`CCCC(=O)O` gave a viability of 91.9% (HBL-1; 1 µM, 120 h).
`O=C1NCCc2nc(OCc3cccc(F)c3)ccc21`: “Irwin test score” 0 (refers to: Irritability; Sprague-Dawley rat male; oral, 100 mg/kg, 30 min; direction not given).
`O=C(O)CCC(=O)O.[2H]C([2H])([2H])Oc1cc(C)c2[nH]ccc2c1CN1CC[C@@H](C2CC2)C[C@H]1c1ccc(C(=O)O)cc1` — result for “TEAE urine leukocyte positive”: 0% (healthy Chinese subjects; 50 mg, single ascending dose).
For `O=C(Nc1ccc(OC(F)(F)Cl)cc1)c1cnc(N2CC[C@@H](O)C2)c(-c2ccn[nH]2)c1`, “lipase increase incidence” read 1.9% (human patients; oral, dose not given; baseline: records).
Under “acute respiratory failure grade ≥3”, `Cc1cc(C)c(CNC(=O)c2cc(Cl)c3c(c2C)O[C@@](C)([C@H]2CC[C@H](N(C)C)CC2)O3)c(=O)[nH]1` is recorded as 4.2% (human relapsed/refractory NHL; oral, 200 mg once daily, onset after cycle 1 day 1).

A few entries again:
For `COc1ccc(CNc2nc(-c3ccc(C(=O)O)cc3)nc3sc4ccccc4c23)cc1Cl`, the body weight was 21.5 g and 18.4 g and 19.1 g and 20.6 g (NSG mice; dose not given, day 3).
Under “hydrolysis half-life, A isomer”, `N[C@@H](CC(=O)O)C(=O)OC(C(=O)O)c1ccccc1[N+](=O)[O-].O=C(O)C(F)(F)F` (mixture of isomers) is recorded as 13 ± 1 h (1H NMR, dark; 50 mM sodium phosphate; concentration not given, pH 5.8, room temperature, 12.5% DMSO-d6).
`C[C@H]1Oc2cc(cnc2N)-c2c(nn(C)c2C#N)CN(C)C(=O)c2ccc(F)cc21` gave a clearance of 156 mL/min (population PK; patients with mild hepatic impairment (NCI sample B), plasma; oral, 100 mg, mean, single dose).
`C[C@@H](c1ncncc1F)[C@](O)(Cn1cncn1)c1ccc(F)cc1F` gave a drug-related TEAE of 36.4% (human; oral, 400 mg, drug interaction trial).
`COc1ccc([C@@H](O)c2cc(-c3ncnc4cc(N5CCOCC5)ccc34)c(F)cc2Cl)nn1` — result for “drug-related proctitis incidence”: 17% (locally advanced rectal cancer patients; 100 mg, added: capecitabine and radiotherapy).
With `CCN1CCN(Cc2ccc(NC(=O)c3ccc(C)c(NC(=O)c4cncc(-c5cccs5)c4)c3)cc2C(F)(F)F)CC1` the AUC/dose was 0.12 kg·µg·h/mL/mg (C57BL/6 mouse, plasma; intraperitoneal, 10 mg/kg, 0.25 to 8.0 h, single dose).
With `CNCc1ccc(-c2[nH]c3cc(F)cc4c3c2CCNC4=O)cc1` the headache incidence was 25% (human patients; oral, 360 mg twice daily, all grades).
